Published values pooled from the literature.
Compare with care: the assays were run in different laboratories. Values after ≈ are worked out from the molar mass of the structure shown.

Protein sequences, listed by entry. Tags and fused reporters are not part of them.
UniProt P22607, whole entry, looked up: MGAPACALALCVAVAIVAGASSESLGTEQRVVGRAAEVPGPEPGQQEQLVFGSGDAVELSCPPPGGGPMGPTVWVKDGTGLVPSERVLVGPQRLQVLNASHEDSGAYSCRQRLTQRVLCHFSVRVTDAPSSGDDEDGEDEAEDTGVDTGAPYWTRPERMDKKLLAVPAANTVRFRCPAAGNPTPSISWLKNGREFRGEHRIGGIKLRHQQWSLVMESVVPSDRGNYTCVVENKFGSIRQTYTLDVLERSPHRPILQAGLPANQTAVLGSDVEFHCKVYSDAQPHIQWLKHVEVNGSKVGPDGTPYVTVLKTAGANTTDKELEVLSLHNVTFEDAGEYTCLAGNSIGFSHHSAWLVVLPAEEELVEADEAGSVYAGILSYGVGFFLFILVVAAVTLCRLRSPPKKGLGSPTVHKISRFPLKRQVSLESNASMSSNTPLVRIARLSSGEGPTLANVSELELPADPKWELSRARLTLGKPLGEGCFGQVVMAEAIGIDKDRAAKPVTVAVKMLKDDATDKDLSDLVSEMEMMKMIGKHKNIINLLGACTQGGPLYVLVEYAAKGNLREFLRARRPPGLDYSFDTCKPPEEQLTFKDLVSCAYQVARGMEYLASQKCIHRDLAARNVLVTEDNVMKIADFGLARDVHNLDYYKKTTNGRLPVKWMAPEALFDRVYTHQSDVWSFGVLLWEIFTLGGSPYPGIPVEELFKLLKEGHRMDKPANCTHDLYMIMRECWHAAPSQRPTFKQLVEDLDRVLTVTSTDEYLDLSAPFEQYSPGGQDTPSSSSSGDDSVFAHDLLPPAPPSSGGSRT
UniProt Q92630, whole entry: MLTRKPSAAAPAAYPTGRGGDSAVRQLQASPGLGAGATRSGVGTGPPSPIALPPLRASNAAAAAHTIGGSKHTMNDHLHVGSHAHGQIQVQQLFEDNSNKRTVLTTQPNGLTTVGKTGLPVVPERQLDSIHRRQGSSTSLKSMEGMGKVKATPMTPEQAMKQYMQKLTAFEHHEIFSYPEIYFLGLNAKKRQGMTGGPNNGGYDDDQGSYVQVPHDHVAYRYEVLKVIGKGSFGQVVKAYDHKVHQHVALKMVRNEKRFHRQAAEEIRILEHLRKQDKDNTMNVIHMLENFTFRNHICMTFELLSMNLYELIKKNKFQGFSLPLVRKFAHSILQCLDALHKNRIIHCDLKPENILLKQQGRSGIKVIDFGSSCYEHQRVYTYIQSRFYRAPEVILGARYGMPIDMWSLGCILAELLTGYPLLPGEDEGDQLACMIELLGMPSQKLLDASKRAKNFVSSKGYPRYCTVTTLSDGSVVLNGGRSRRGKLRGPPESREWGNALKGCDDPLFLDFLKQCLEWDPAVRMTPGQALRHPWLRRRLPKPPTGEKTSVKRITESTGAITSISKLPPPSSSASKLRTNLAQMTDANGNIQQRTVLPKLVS

With CC#C/C(=N\OC[C@H]1COCCN1)c1ccc2ncnc(Nc3ccc(OCc4cccc(F)c4)c(Cl)c3)c2c1 the inhibition was 2.3% (FGFR3 (Homo sapiens, UniProt P22607); kinase activity; 10 µM).
For CCN1CCN(Cc2ccc(NC(=O)c3ccc(C)c(/C=C/c4cnc5[nH]ccc5c4OC)c3)cc2C(F)(F)F)CC1, “log2 fold change” read 0.177 log2 (DYRK2 (Homo sapiens, UniProt Q92630); inhibitor, cell-based kinome screen; 5 µM; baseline: vehicle).
CCOc1ccc2nc3ccc(=O)cc-3oc2c1 gave an MIC90 of 29 µM (≈ 7 µg/mL) (Mycobacterium tuberculosis; mc2 6206 PA-824-resistant ddn mutant; 7 days).
For CS(=O)(=O)NC(=O)CCc1cn(-c2ccc(Br)cc2)nc1-c1ccc(Cl)cc1, the MIC was 4 µM (Mycobacterium tuberculosis; MmpL3 G253E mutant).
O=c1ccc2nc3ccc(OCc4ccccc4)cc3oc-2c1I gave an MIC90 of greater than 256 µM (Mycobacterium tuberculosis; mc2 6206 bedaquiline-resistant MmpL5 regulator mutant; 7 days).
The MIC of CS(=O)(=O)NC(=O)NCc1cc(-c2ccc(Br)cc2)oc1-c1ccncc1 is reported as 0.5 µM (Mycobacterium tuberculosis; EthA C253R mutant).
The MIC of CCc1nc(N)nc(N)c1C#C[C@@H](C)c1cc(OC)cc(-c2ccc(C(=O)O)cc2)c1 is reported as 1 µg/mL (Mycobacterium tuberculosis; INCA-resistant strains).
For CC1(C)CCC(Cc2cc(O)c(-c3ccccc3)c(=O)[nH]2)CC1, the resistance frequency was 1e-08 per cell (Mycobacterium tuberculosis; H37Rv; 10 × MIC).
CS(=O)(=O)NC(=O)NCc1cn(-c2ccc(Cl)cc2)nc1-c1ccncc1 has an MIC of 0.5 µM (Mycobacterium tuberculosis; OD600; QcrB A317T mutant).
For O=C(O)COc1ccc2nc3ccc(=O)cc-3oc2c1, the MIC90 was greater than 256 µM (Mycobacterium tuberculosis; mc2 6206 bedaquiline-resistant MmpL5 regulator mutant; 7 days).
For CCc1nc(N)nc(N)c1C#CCc1cc(OC)cc(-c2ccc(C(=O)O)cc2)c1, the MIC was 1 µg/mL (Mycobacterium tuberculosis; PAS-resistant folC I43T).

A few entries again:
CS(=O)(=O)NC(=O)NCc1cn(-c2ccc(Cl)cc2)nc1-c1ccncc1 has an MIC of 0.5 µM (Mycobacterium tuberculosis; OD600; QcrB A317T mutant).
